Assay results pooled from the literature.
Numbered parts are unrelated; each lists some results of a single study. Positions count from the first letter of the parent shown.

Set 1 — technique: protein binding microarray; molecule type: double-stranded DNA, one strand shown; sample: in vitro; tested at: not given; reference: not given; direction: higher = stronger binding; quantity: E-score
Target: Histone acetyltransferase KAT6A, winged helix 1, GST fusion (KAT6A, Homo sapiens, UniProt Q92794, residues 1-85)
Notes: 8-mer, flanks averaged, mean of 2 arrays, mostly near background
Residues (chain): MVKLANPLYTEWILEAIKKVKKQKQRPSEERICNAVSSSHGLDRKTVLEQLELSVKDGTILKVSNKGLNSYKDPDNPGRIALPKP
Sequence = TAGCGATA; value = 0.0166
Sequence = GGCTCGTA; value = 0.0464
Sequence = ATGGGGCC; value = 0.017
Sequence = TAAATTAA; value = -0.138
Sequence = CCGGCATC; value = 0.329
Sequence = CGCGGTAA; value = 0.358

Set 2 — target: CCNF, cyclin fold, Cln2 fusion (human); technique: yeast growth competition, sequencing; sample: yeast; notes: strong parent motif; reference: not given; direction: higher = stronger binding; quantity: normalised enrichment score
Starting sequence: E2F1 docking peptide (human); PPVKRRLDLETDH
Substitution = R6N; value = 1.39
Substitution = V3I; value = 3.95
Substitution = R5M; value = -0.635

Set 3 — technique: universal PBM; molecule type: double-stranded DNA, one strand shown; sample: in vitro; tested at: 600 nM; direction: higher = stronger binding; quantity: E-score
Target: Sal-like protein 4, full length isoform A (SALL4, Homo sapiens, UniProt Q9UJQ4, residues 1-1053)
UniProt Q9UJQ4, sequence (whole entry, looked up): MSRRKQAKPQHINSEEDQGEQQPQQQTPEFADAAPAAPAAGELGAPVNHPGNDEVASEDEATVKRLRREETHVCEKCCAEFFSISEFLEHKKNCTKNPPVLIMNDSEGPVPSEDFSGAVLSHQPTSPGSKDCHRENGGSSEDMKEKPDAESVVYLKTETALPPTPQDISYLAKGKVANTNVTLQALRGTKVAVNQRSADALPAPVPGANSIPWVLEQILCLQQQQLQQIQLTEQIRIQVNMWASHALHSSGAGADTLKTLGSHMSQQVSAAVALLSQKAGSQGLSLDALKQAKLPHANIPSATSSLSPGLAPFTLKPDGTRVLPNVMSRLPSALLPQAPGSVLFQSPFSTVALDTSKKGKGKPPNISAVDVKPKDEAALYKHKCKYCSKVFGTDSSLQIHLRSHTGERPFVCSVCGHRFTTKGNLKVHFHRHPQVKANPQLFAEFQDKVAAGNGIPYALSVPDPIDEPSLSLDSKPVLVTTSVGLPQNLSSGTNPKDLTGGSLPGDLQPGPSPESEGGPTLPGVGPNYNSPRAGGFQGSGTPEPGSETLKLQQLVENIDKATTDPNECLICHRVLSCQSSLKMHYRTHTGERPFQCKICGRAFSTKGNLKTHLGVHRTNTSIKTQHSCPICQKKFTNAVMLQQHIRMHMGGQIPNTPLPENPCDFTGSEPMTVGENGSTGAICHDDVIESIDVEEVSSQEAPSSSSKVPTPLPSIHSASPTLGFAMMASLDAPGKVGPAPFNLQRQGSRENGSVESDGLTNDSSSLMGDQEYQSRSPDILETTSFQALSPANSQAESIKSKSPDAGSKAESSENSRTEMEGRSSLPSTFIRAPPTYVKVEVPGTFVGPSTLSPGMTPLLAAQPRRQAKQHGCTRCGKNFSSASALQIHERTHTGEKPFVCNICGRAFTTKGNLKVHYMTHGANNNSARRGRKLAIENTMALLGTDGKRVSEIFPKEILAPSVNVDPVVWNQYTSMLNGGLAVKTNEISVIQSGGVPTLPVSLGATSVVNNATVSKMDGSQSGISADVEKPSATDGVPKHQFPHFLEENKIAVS
Notes: 8-mer, flanks averaged, mean of replicates
Sequence = GATAAACA; value = 0.24
Sequence = GTGCGGCA; value = -0.257
Sequence = AGGGGGGA; value = -0.22
Sequence = AACAGTCA; value = 0.0401
Sequence = ATCCTATG; value = 0.116
Sequence = ACAACGCG; value = -0.1

Mixed results
Molecule = PhoQ, residues 284 288 289 292 302 303 TLMATV; target = PhoP, residues 12 14 15 18 19 AQALL (Escherichia coli, UniProt P23836); assay = Sort-seq, refers to: YFP reporter; system = E. coli; conditions = PhoQ-PhoP variant library, added: 10 µM Mg2+; scale = reference: high Mg2+ state, higher = stronger signaling; quantity = fold induction; value = 5.06

A few entries again (set 3):
Sequence = AACAGTCA; value = 0.0401
Sequence = ATCCTATG; value = 0.116
Sequence = ACAACGCG; value = -0.1
